# Experimental data of several laboratories.
# Every numbered part comes from another study and shows a few of its results, in no order. Several values in a cell are separate wells, animals, samples, runs or records.
# Sequence of UniProt P22607 (whole entry, looked up): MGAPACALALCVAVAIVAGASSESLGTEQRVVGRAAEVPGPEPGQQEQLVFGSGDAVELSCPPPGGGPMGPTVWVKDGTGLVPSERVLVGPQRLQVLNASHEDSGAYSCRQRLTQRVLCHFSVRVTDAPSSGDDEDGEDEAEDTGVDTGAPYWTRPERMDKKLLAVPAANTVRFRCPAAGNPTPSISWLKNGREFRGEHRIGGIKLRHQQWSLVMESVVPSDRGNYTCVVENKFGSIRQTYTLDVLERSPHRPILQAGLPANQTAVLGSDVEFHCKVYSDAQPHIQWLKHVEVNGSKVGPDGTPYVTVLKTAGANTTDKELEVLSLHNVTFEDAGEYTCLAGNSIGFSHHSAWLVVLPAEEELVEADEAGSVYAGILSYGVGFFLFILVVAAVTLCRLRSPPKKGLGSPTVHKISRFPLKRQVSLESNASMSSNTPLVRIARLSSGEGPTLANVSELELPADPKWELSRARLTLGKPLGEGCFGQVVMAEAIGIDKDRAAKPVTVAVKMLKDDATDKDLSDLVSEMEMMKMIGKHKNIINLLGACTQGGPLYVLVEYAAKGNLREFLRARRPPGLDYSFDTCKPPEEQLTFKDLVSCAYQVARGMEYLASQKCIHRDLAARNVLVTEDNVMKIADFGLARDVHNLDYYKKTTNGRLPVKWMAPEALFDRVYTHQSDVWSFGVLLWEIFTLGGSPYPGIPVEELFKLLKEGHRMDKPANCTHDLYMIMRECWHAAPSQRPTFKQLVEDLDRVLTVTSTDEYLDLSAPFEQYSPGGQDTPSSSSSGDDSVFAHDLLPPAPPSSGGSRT
# Sequence of UniProt Q15418 (whole entry, looked up): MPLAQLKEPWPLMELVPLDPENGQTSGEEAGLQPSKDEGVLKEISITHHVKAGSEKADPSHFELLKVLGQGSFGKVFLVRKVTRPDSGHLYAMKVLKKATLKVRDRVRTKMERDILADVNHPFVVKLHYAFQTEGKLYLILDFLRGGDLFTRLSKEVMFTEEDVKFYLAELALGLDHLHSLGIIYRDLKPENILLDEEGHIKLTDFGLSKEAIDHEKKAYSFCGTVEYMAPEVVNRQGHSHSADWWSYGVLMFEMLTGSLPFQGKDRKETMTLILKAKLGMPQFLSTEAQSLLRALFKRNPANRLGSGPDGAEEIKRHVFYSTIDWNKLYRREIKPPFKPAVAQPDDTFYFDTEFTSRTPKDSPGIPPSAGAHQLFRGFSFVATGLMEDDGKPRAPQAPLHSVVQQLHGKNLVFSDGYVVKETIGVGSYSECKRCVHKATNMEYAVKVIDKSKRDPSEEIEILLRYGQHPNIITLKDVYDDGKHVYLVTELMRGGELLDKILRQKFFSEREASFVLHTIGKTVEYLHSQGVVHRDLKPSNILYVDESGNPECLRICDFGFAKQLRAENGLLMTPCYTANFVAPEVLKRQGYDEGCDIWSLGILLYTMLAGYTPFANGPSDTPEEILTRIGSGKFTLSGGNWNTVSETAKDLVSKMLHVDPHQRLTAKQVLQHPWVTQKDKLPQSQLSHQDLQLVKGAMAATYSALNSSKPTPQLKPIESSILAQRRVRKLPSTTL
# Sequence of UniProt P48729 (whole entry, looked up): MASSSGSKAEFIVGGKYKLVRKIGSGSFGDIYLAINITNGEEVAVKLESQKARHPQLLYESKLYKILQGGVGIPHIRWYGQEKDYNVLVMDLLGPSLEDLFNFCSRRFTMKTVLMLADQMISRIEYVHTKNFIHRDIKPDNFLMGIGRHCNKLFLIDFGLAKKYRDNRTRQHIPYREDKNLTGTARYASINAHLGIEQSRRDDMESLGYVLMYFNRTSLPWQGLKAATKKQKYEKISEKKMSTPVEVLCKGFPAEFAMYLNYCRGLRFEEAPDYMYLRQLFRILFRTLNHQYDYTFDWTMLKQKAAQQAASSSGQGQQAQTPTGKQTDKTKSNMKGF

# Set 1
# Target: Tyrosine-protein kinase Fyn (FYN, Homo sapiens, UniProt P06241)
# Sequence of UniProt P06241 (whole entry, looked up): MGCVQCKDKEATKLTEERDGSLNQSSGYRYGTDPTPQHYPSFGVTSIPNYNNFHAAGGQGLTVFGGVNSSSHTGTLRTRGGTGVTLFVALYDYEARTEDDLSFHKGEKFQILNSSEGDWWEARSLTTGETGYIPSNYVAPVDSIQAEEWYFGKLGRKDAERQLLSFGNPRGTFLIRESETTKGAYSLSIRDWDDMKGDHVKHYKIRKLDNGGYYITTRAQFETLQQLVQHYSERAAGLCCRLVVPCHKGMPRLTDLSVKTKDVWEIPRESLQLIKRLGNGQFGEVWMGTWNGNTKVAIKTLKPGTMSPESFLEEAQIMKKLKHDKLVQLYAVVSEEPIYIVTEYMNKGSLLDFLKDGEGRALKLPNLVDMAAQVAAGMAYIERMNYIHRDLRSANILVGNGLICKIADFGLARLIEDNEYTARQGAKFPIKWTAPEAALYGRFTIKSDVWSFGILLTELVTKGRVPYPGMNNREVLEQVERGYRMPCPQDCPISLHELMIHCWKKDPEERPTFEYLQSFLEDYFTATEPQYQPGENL
# Read-out: enzyme activity
# Action: inhibitor
# Tested at: 0.5 µM
# Relative to: control
Structure (SMILES),remaining activity
N#Cc1c(NC(=O)c2cccc3ccccc23)sc2c1CCCC2,102%
O=C(NC(NC(=S)Nc1ccc(F)c([N+](=O)[O-])c1)C(Cl)(Cl)Cl)C(c1ccccc1)c1ccccc1 (centres unmarked),91.2%
Cn1nc2c3c(cccc31)C(=O)c1ccccc1-2,93.8%
CN([C@@H](Cc1ccc(OS(=O)(=O)c2cccc3cnccc23)cc1)C(=O)N1CCN(c2ccccc2)CC1)S(=O)(=O)c1cccc2cnccc12,101%
c1ccc(-c2cnc(Nc3ccc(OCCN4CCCC4)cc3)s2)cc1,81.1%
O=C1C(Cl)=C(N2C(=O)CCC2=O)C(=O)c2ccccc21,111%
Cc1nc2cc3nc(-c4cccs4)cnc3cc2n1C,107%
COc1cc2ncnc(Nc3ccc(O)c(Br)c3)c2cc1OC,80.4%
Cc1cn(-c2cc(NC(=O)c3ccc(C)c(Nc4nccc(-c5cccnc5)n4)c3)cc(C(F)(F)F)c2)cn1,102%
N#C/C(=C\c1ccc(O)c(O)c1)C(=O)NCc1ccccc1,116%
O=C(Nc1cccc(Nc2nccc(Nc3cccc(C(F)(F)F)c3)n2)c1)C1CC1,54.1%
Nc1cccc(-c2cc3c(Oc4cccc(O)c4)ncnc3[nH]2)c1,7.92%
CCOc1nc(NC(=O)Cc2cc(OC)ccc2OC)cc(N)c1C#N,101%
Cc1cc2ncc(-c3ccccc3)nc2cc1C,99.4%
CN(C)C[C@H]1CCn2c(c(C3=C(c4cn(C)c5ccccc45)C(=O)NC3=O)c3ccccc32)C1,92.8%
COc1cc2ncnc(Nc3cccc(Cl)c3)c2cc1OC,85.7%
c1ccc(-c2[nH]ncc2-c2ccnc3ccccc23)nc1,110%
Ic1cccc(CSc2nnc(-c3ccncc3)o2)c1,102%
CCN(CC)CCNC(=O)c1c(C)[nH]c(/C=C2\C(=O)Nc3ccc(F)cc32)c1C,71.3%
CCN(CC)C(=O)c1ccc(Nc2nc(OCC3CCCCC3)c3[nH]cnc3n2)cc1,62.6%
COc1cc2c(cc1OC)-c1[nH]nc(Nc3cccc(F)c3)c1C2,73.4%

# Set 2
# Species: mouse
# Medium: microsomes or S9
# Tested at: 2 µM
# Time: 0.5 h
SMILES,remaining compound [%]
O=C(Cn1nc(C(=O)N2CCc3ccccc32)c2cc(F)ccc21)OCc1ccccc1,0.364
CCOc1cc(=O)n2c(c1C(=O)NCCCN1CCCc3ccccc31)CCCCC2,< 1
CCC1(N2CCOCC2)CCN(C(=O)c2c[nH]c(=O)cc2OC)CC1,63.7
CC(C)(C)c1ccc(S(=O)(=O)n2ccnc2)cc1,> 99
COc1ccc(-c2nc(-c3ccc(C)cc3)no2)c(OC)c1,65.6
N#Cc1ccc2[nH]cc(S(=O)(=O)c3cc(Cl)cc(Cl)c3)c(=O)c2c1,20
OCc1onc2c1CCOC2c1ccc(Cl)cc1 (centres unmarked),74.8
CCCc1cc(-n2ccnc2C)n2nc3nc(C)cc(C)c3c2n1,39.5
CCCn1nc(C)c(-c2cncn2CCn2nc(C)c(C)c2C)c1C,3.99
Cc1cc(C)c2nc(Nc3nc(C)c(C)c(O)n3)nc(C)c2c1,4.93
Cc1nc(C2=C(N)N(C3CS(=O)(=O)CC3O)CC2=O)sc1C (centres unmarked),84.2

# Set 3
# Structure (SMILES): CCOC(=O)c1cc2cc(-c3cc(C(=O)NCc4ccc(C(=O)O)cc4)nn3C)ccc2[nH]1
# Read-out: cell-free assay
# Method: competition with immobilised ligand
# Tested at: 0.1 µM
target,remaining binding
"Tyrosine-protein kinase ABL1, phosphorylated (ABL1, Homo sapiens, UniProt P00519, Y253F)",93%
"NEK10 (Homo sapiens, UniProt Q6ZWH5)",90%
"CSNK1A1 (Homo sapiens, UniProt P48729)",88%
"RET (Homo sapiens, UniProt P07949, M918T)",100%
"CSK (Homo sapiens, UniProt P41240)",74%
"ABL2 (Homo sapiens, UniProt P42684)",100%
"IKBKE (Homo sapiens, UniProt Q14164)",66%
"RIOK3 (Homo sapiens, UniProt O14730)",100%
"FLT3 (Homo sapiens, UniProt P36888, D835V/ITD)",87%
"Ribosomal protein S6 kinase alpha-1, C-terminal kinase domain (RPS6KA1, Homo sapiens, UniProt Q15418)",84%
"FGFR3 (Homo sapiens, UniProt P22607)",97%
"FGFR1 (Homo sapiens, UniProt P11362)",86%
"PLK4 (Homo sapiens, UniProt O00444)",82%
"PIK3CB (Homo sapiens, UniProt P42338)",88%
"CDKL3 (Homo sapiens, UniProt Q8IVW4)",0%
"MET (Homo sapiens, UniProt P08581, M1250T)",87%
"EGFR (Homo sapiens, UniProt P00533, A750P/del747-749)",94%
"TLK2 (Homo sapiens, UniProt Q86UE8)",93%
"MARK2 (Homo sapiens, UniProt Q7KZI7)",100%

# Set 4
# Target: DNA polymerase theta, ATPase domain (POLQ, Homo sapiens, UniProt O75417)
# Sequence of UniProt O75417 (whole entry, unmodified, looked up): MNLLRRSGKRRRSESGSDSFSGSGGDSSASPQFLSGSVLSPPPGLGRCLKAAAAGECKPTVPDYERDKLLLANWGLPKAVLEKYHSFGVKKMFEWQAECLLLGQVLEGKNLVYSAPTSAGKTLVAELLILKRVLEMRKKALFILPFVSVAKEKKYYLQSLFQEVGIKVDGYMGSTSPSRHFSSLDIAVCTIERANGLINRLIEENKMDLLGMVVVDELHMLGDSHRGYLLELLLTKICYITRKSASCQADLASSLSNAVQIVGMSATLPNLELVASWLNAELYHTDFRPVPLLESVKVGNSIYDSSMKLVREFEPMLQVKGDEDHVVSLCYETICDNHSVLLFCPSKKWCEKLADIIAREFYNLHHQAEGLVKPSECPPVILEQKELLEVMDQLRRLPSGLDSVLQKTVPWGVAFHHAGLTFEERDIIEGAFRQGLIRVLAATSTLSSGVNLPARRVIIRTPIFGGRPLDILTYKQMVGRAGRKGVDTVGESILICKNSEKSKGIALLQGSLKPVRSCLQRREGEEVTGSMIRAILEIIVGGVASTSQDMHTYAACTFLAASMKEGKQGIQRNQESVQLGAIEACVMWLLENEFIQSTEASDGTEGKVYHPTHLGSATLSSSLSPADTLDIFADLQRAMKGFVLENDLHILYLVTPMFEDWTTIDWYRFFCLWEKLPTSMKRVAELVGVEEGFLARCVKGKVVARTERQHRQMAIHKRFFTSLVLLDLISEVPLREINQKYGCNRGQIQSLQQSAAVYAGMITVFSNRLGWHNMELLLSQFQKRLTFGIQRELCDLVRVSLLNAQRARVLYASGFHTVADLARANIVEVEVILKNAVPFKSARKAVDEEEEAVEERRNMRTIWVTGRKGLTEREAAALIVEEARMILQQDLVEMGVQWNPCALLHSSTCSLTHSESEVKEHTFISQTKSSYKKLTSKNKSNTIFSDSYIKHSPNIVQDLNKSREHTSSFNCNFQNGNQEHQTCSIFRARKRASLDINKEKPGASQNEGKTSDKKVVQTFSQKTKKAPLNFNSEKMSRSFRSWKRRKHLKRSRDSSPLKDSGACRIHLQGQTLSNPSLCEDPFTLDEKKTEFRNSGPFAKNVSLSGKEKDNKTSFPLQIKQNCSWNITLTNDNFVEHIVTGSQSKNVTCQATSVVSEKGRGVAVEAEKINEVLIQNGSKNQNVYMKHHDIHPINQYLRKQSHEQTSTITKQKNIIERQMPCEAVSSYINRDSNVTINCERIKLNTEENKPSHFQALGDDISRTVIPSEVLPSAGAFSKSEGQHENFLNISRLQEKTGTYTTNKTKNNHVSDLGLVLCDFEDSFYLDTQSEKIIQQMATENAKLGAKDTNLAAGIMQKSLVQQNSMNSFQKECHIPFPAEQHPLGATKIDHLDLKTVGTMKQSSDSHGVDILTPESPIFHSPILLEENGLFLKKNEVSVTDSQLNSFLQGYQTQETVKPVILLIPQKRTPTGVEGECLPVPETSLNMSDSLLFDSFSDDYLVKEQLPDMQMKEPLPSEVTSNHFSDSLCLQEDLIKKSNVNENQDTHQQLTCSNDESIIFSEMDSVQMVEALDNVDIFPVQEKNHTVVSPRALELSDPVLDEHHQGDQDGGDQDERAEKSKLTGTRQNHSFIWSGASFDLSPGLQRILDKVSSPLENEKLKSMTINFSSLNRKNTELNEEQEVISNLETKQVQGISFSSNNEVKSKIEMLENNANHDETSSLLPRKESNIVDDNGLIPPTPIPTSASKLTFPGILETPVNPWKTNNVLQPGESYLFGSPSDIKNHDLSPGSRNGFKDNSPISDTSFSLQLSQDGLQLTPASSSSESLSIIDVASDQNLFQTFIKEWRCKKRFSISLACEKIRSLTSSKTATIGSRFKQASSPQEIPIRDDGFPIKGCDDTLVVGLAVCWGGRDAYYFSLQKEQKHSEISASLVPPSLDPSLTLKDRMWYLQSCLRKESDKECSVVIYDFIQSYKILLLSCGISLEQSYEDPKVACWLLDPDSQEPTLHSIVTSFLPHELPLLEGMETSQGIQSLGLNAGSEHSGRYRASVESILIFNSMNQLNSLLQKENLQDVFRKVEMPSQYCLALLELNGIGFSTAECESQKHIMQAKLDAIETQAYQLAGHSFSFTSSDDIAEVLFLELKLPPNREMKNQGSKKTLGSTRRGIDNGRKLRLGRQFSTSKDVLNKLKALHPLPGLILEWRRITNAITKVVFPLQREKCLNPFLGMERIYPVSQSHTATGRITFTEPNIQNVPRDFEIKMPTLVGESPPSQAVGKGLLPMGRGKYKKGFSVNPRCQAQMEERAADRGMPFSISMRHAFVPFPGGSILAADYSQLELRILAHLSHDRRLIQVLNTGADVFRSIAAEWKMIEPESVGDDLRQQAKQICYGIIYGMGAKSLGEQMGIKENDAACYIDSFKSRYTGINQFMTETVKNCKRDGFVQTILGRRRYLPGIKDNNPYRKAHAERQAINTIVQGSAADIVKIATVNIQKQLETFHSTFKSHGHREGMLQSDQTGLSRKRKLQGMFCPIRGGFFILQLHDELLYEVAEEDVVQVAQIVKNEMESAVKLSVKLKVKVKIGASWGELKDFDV
# Read-out: enzyme activity
# Action: inhibitor
# Tested at: 77 µM
# Relative to: untreated
Compound,remaining activity
C[C@H]1[C@@H](O)O[C@@H]2O[C@@]3(C)CC[C@H]4[C@H](C)CC[C@@H]1[C@@]24OO3,101%
Cc1nc(=O)c2cc(CN(C)c3ccc(C(=O)N[C@@H](CCC(=O)O)C(=O)O)s3)ccc2[nH]1,89.5%
COc1cc(C(C)=O)ccc1O,95.8%
C=CCc1ccc(O)c(-c2ccc(O)c(CC=C)c2)c1,93.2%
COc1ccc2c(c1)c1c3c(c4c5ccccc5n(C)c4c1n2CC(O)CN(C)C)C(=O)NC3=O (centres unmarked),96.6%
CC(NC(=O)c1ccccc1/N=C/c1c(O)ccc2ccccc12)c1ccccc1 (centres unmarked),91.9%
Cc1ncc([N+](=O)[O-])n1CC(O)CCl (centres unmarked),99.6% and 96.1%
C[C@H]1COc2c(N3CCN(C)CC3)c(F)cc3c(=O)c(C(=O)O)cn1c23,88.1%
CCN(CC)C(=O)c1ccc(O)c(OC)c1,106% and 104%
NC(N)=NCc1cccc(I)c1,95.3% and 102%
C[C@@H]1O[C@@H](OC[C@H]2O[C@@H](Oc3c(-c4ccc(OCCO)c(OCCO)c4)oc4cc(OCCO)cc(O)c4c3=O)[C@H](O)[C@@H](O)[C@@H]2O)[C@H](O)[C@H](O)[C@H]1O,98.8%
CN1CCCN(C(c2ccccc2)c2ccc(Cl)cc2)CC1 (centres unmarked),103%
C=CCN1CCCC1CNC(=O)c1cc2nn[nH]c2cc1OC (centres unmarked),96.5%
CN(Cc1cc(Br)cc(Br)c1N)C1CCCCC1,102%

# Repeated from above (set 3):
target,remaining binding
"MET (Homo sapiens, UniProt P08581, M1250T)",87%
"CSK (Homo sapiens, UniProt P41240)",74%
"NEK10 (Homo sapiens, UniProt Q6ZWH5)",90%
"TLK2 (Homo sapiens, UniProt Q86UE8)",93%
"CDKL3 (Homo sapiens, UniProt Q8IVW4)",0%
"FGFR3 (Homo sapiens, UniProt P22607)",97%
"Tyrosine-protein kinase ABL1, phosphorylated (ABL1, Homo sapiens, UniProt P00519, Y253F)",93%
"RET (Homo sapiens, UniProt P07949, M918T)",100%
"CSNK1A1 (Homo sapiens, UniProt P48729)",88%
"Ribosomal protein S6 kinase alpha-1, C-terminal kinase domain (RPS6KA1, Homo sapiens, UniProt Q15418)",84%
